Published values collected from several papers.
Protocols differ between the studies behind these lines.

For CC(C)NCC(O)c1ccc(O)c(O)c1 (stereo not drawn), the sarcomere length was 1.72 µm (ventricular cardiomyocytes, C57BL/6 mouse; dose not given, 0.756 s).
Under “log2 fold change”, N#Cc1ccc2c(-c3ccncc3)c(-c3ccc(F)cc3)nn2c1 is recorded as 0.155 (kinase binding, competitor, MIB/MS competition, measured: FPK1; Candida albicans cell lysate; 100 nM; relative to: DMSO).
Under “log2 fold change”, Cn1cc(-c2ccc(-c3cncc(Cl)c3N3CCC4(CCNC4=O)CC3)cc2)cn1 is recorded as -2.13 (COLO 205; gene expression, microarray, measured: VIL1 mRNA; concentration not given, 2 h; relative to: untreated cells).
CN[C@@H](C)C(=O)N[C@H]1CN(S(=O)(=O)c2cccc(S(=O)(=O)N3CC[C@H]4CC[C@@H](C(=O)NC(c5ccccc5)c5ccccc5)N4C(=O)[C@@H](NC(=O)[C@H](C)NC)C3)c2)CC[C@H]2CC[C@@H](C(=O)NC(c3ccccc3)c3ccccc3)N2C1=O — result for “best response partial response”: 16.7% (RECIST 1.1; advanced pancreatic cancer patients; dose not given, prior therapy, added: AG).
O=C(O)CNC(=O)Cc1ccccc1 gave a sarcomere length of 1.72 µm (ventricular cardiomyocytes, C57BL/6 mouse; dose not given, 0.004 s).
For COc1cc(O)c(CC=C(C)C)c(O)c1C(=O)/C=C/c1ccc(O)cc1, “fasting plasma glucose” read 134 mg/dL (male Tac:SW germ-free mice, high-fat diet; in diet, 60 mg/kg/day, 10 weeks).
The plasma level of N#Cc1ccc2c(c1)[C@H]1CCCN(C(=O)c3ccc4[nH]cnc4c3)[C@H]1C2 is reported as 4.64 nmol/L (measured: androstenedione; human female, Phase II trial; oral, 240 mg once daily, last treatment, HPA axis, mean).
Under “percent change from baseline”, C[C@H]1C[C@H]2CSC(N)=N[C@@]2(c2nc(NC(=O)c3ccc(OC(F)F)cn3)cs2)CO1 is recorded as -71% (measured: Aβx-40; healthy adults, plasma; 125 mg once daily, day 7; relative to: placebo).
With NC(=O)c1cnc2[nH]ccc2c1N[C@@H]1[C@@H]2CC3C[C@H]1C[C@@](O)(C3)C2 the percent change was 0.07% (CD4+ effector memory T cells, flow cytometry; Japanese humans, peripheral blood; 20 mg single dose; relative to: baseline).
